Measured values of several laboratories.
A part holds a random share of what one study measured.

Series 1
Target: Histone acetyltransferase KAT6A, winged helix 2, GST fusion (KAT6A, Homo sapiens, UniProt Q92794, residues 85-181)
Technique: protein binding microarray
Molecule type: double-stranded DNA, one strand shown
Medium: in vitro
Tested at: not given
Notes: 8-mer, flanks averaged, mean of 2 arrays, mostly near background
Baseline: not given
Reading: higher = stronger binding
Target sequence (chain): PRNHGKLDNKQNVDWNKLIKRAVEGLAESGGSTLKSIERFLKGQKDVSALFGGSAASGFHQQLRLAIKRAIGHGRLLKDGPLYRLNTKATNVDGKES
`ACAACGTC` gave an E-score of -0.195.
For `CGCCATCC`, the E-score was 0.154.
`AGTGTATC` gave an E-score of -0.136.
For `ATCGCTTC`, the E-score was 0.0975.
The E-score of `CATCGCGC` is reported as 0.127.
`ATCAGTAG` has an E-score of -0.0124.
`GGTATTCA` has an E-score of 0.0521.
The E-score of `TGCAGAAA` is reported as 0.0549.
With `GCTCCACC` the E-score was 0.113.
The E-score of `CTTATGAA` is reported as -0.0238.
The E-score of `ATACGGAC` is reported as -0.079.
For `AGGAGGTA`, the E-score was -0.0709.
`ATCCCGAC` gave an E-score of 0.158.
With `ACCATGGG` the E-score was -0.117.
For `AAGGCCTG`, the E-score was 0.0693.
`GGGAGGAA` gave an E-score of 0.196.
`CAACAAGC` gave an E-score of 0.051.
With `AGTCTGGA` the E-score was 0.0314.
The E-score of `TCAGAACA` is reported as 0.0538.
`AGGTACAG` gave an E-score of -0.141.
`AGAGTTCG` has an E-score of 0.000885.
`AGAGCGTA` gave an E-score of -0.139.
For `CAGAAAGA`, the E-score was 0.133.
With `TAGCGGGA` the E-score was 0.0374.
`AACTTGGG` gave an E-score of -0.0369.

Series 2
Target: Sal-like protein 4, full length isoform A (SALL4, Homo sapiens, UniProt Q9UJQ4, residues 1-1053)
UniProt Q9UJQ4, sequence (whole entry, looked up): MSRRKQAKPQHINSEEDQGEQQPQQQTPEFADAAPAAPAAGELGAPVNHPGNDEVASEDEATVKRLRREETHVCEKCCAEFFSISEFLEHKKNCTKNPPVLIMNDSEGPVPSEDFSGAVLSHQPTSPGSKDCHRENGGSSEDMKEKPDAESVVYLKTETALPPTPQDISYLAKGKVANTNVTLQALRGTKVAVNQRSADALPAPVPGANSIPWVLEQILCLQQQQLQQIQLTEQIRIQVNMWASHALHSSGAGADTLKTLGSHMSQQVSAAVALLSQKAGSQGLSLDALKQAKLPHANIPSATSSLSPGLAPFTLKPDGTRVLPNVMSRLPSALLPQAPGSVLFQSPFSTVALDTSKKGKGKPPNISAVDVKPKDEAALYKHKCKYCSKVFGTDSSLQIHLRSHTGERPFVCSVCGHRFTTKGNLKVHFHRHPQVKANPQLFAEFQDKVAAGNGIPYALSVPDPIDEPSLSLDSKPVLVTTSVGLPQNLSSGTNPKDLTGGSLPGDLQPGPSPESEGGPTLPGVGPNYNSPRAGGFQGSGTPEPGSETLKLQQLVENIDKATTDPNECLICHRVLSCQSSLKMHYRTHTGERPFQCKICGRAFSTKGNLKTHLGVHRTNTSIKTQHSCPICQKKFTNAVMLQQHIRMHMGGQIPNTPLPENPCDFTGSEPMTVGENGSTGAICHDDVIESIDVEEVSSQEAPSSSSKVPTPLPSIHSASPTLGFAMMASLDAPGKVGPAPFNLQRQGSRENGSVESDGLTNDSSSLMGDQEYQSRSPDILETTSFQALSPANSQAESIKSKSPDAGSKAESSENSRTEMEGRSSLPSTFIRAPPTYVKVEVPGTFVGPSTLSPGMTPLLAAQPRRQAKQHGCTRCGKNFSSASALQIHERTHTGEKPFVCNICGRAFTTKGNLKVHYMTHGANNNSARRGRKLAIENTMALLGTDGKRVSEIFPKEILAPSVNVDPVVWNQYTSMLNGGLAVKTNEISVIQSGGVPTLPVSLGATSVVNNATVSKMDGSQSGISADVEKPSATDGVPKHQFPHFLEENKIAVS
Technique: universal PBM
Molecule type: double-stranded DNA, one strand shown
Medium: in vitro
Tested at: 600 nM
Notes: 8-mer, flanks averaged, mean of replicates
Reading: higher = stronger binding
`AAGAGTAG` has an E-score of -0.0309.
The E-score of `ACGTGAGC` is reported as -0.211.
`CAAAACGA` gave an E-score of 0.169.
`CTACACCC` has an E-score of -0.255.
The E-score of `CACGGTTC` is reported as -0.255.
With `CACGATGG` the E-score was -0.237.
`AGGTTAAC` has an E-score of 0.0972.
The E-score of `AACAGTCG` is reported as -0.0565.
The E-score of `AGAGAGAG` is reported as -0.163.
`ATCGATTA` has an E-score of 0.175.
With `AATTTAAG` the E-score was 0.235.
With `ACGAAGTC` the E-score was 0.0544.
The E-score of `CTTAAACC` is reported as -0.0597.
`AAATAACC` has an E-score of 0.209.
`GAACCCTC` has an E-score of -0.314.
For `CGAAGGTC`, the E-score was -0.135.
For `GTACTCGA`, the E-score was -0.0583.

Series 3
Target: RNA binding protein fox-1 homolog 2, RRM domain, GST-SBP tag (RBFOX2, Homo sapiens, UniProt O43251-10, residues 100-194)
Technique: RNA Bind-n-Seq
Molecule type: RNA
Medium: in vitro
Tested at: 365 nM
Notes: natural RNA segment, single round, ends assumed
Baseline: no-protein control
Reading: higher = stronger binding
All sequences stand within: GGGAGUUCUACAGUCCGACGAUC … UGGAAUUCUCGGGUGCCAA
Construct (chain): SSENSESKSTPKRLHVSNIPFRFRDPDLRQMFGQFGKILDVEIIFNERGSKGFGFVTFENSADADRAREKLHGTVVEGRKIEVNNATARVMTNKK
For `ACCAGGGCUAGAGUCAACAGUCCAGAACCCCUAUCCGUAUGAACAGGGGCCCGUUUCUGGUUGAAAUCAAGGUUAGGAUGCAACUGAGAAAAUAAAAGACUGCACUUUGG`, “RBNS enrichment (R)” read 1.05.
`GUGCAGGCAUGCGGUAGGAAAGGUAGAUCACCUCUGGCUACUCCUGAGGCCCUGCUGAGCCAGCAAAAUGCUUUCCAGUUCCUCUUUGGCUCUCACGAUGCCCACCUAGG`: “RBNS enrichment (R)” 1.52.
`GGGGCCUUGCUCGGCACCAGGACUAUUGGGCUGUGUUUAAACGGCCCAAAUCUUAAUUUUUCUCUUUUUUUUCUUUGGCUUUGGGAACGGCAUAAUUUUACACCAUUUUA` — result for “RBNS enrichment (R)”: 0.381.
`AUCAUAGGAUUUAUCAGUUAUCAGACACCUCAUUGUACCAGAGAUUGUCCAGAAGUUUUAAAGACCUUUGCAUCCCUGAACUGGGCUAUGGGAAAUAAUAAUAGUAAUAA`: “RBNS enrichment (R)” 0.37.
For `CACGCCUGUAAUCCCAGCACUUUGGGAGGCUGAGGCGGGUGGAUCACAAGGUCAGGAGAUCAAGACCAUCCUGGCUAACACGGUGAAACCCUGUCUCUACUAAAAAUACA`, “RBNS enrichment (R)” read 0.349.
`AGCUGUGUUAAGGCGCUGCUUCAGAUGCAAGUUCACCUGGAAAUACUGGUCAGCGGGCAGCACGUCAAGGUCACUUAAGCCCACUUUUAACUGCAGGUCAUCCUCGCAUC`: “RBNS enrichment (R)” 1.34.
`UAUGCGGUCUGAAUGCAUGCAUUCAUGAGUCCAUGUGGCCAAGUCAGCCUGUGUGCUACUGAACUGUCGAAGGAAAUAGCCGCUCUGAUAGGUAGAUGUGAGUAAAAAGA`: “RBNS enrichment (R)” 0.924.
`UCAUGGGAAGUGGGGGCACAGGGUGGGUUUCACACUGCAAGACUUGAAAGGGGGACAGGUAUACCCCUUAGCCCUUAGCUGUGUUAUUGGGAGAAAUGAUACACUUGGUC` — result for “RBNS enrichment (R)”: 1.14.
Under “RBNS enrichment (R)”, `CCAAGAAGUUCCCAUCAAAGACCAAGUAUGUGCCUGGCUCCUUAGGAGGGAUGACUCCUGACCACACUGUUGAAGGCUUGCUCUUGUCAAAUACUCUGUCUGCUAUGGAA` is recorded as 1.47.
For `UGUUAACCGACUAUAUACUGAAAGUUCUGUGUCCGACAUAGAGCAGCGUUAUGGUGGGAGCCGCUUCCUGUUCUGUGAACCCCAGGCAGGCUUGACUUCCUAUGGUGUUA`, “RBNS enrichment (R)” read 0.258.
For `CGCCAUCUGGACUUCACUCAGGAGGCCUUCUAUCCCCUGUACUUGGCACUCCUCUUCUGAGGGGUUGCCCCUGUCCCUAUCUUAGGGGAGCUUGUCUCUUCCAUAGACCU`, “RBNS enrichment (R)” read 0.146.
`GGUCCCUUGAGCCAAAGGCCUACCAUCUGCUCGAGGAGUCCCCAUGUCCCUUGGCUGCUCUCGGGUCUUCCUGUCAGGUCUGUCCAGUUGUGGGGUGGUAGUGUGAAUGG` — result for “RBNS enrichment (R)”: 1.01.

Series 4
Target: Prothrombin, mature alpha-thrombin (F2, Homo sapiens, UniProt P00734)
Technique: aptamer microarray, sandwich
Molecule type: DNA with 2'F-ANA
Medium: in vitro
Tested at: 200 nM
Notes: whole 15-mer aptamer, many near background
With: Cy3 exosite-II aptamer, 400 nM
Reading: higher = stronger binding
Strand: GGTTGGTGTGGTTGG
`2'F-ANA at 2 3 4 9 10 11` — result for “mean fluorescence intensity”: 256 a.u.
`2'F-ANA at 1 4 5 7 8 10 11 12 14` — result for “mean fluorescence intensity”: 224 a.u.
`2'F-ANA at 1 2 4 6 14 15` — result for “mean fluorescence intensity”: 56.5 a.u.
`2'F-ANA at 1 3 4 5 8 9 11 12 13 14` — result for “mean fluorescence intensity”: 47.6 a.u.
Under “mean fluorescence intensity”, `2'F-ANA at 1 2 3 7 9 10 12` is recorded as 90.9 a.u.
`2'F-ANA at 2 5 9 14` — result for “mean fluorescence intensity”: 43.6 a.u.
Under “mean fluorescence intensity”, `2'F-ANA at 1 4 6 8 9 10 11 12 14 15` is recorded as 162 a.u.
`2'F-ANA at 1 5 6 13` — result for “mean fluorescence intensity”: 58.6 a.u.
`2'F-ANA at 1 3 6 7 8 10 12 14 15`: “mean fluorescence intensity” 70.2 a.u.
For `2'F-ANA at 1 2 4 8 10 11 12 13 15`, “mean fluorescence intensity” read 52.2 a.u.
`2'F-ANA at 1 2 5 6 9 11 12 13`: “mean fluorescence intensity” 65.2 a.u.
`2'F-ANA at 1 6 7 8 9 12`: “mean fluorescence intensity” 413 a.u.
`2'F-ANA at 1 2 5 7 10 11 12 14 15`: “mean fluorescence intensity” 52.5 a.u.
`2'F-ANA at 2 4 5 7 8 9 10 11 12 14` — result for “mean fluorescence intensity”: 46.7 a.u.
`2'F-ANA at 4 7 8 9 10 13 14`: “mean fluorescence intensity” 63.9 a.u.
For `2'F-ANA at 1 4 6 9 10 15`, “mean fluorescence intensity” read 52.6 a.u.
For `2'F-ANA at 1 3 6 8 15`, “mean fluorescence intensity” read 308 a.u.
Under “mean fluorescence intensity”, `2'F-ANA at 1 2 4 5 6 7 8 11 12 13 15` is recorded as 70.3 a.u.
`2'F-ANA at 4 5 8 11 13 14` — result for “mean fluorescence intensity”: 50.5 a.u.
`2'F-ANA at 1 6 9 11 13 14 15`: “mean fluorescence intensity” 53 a.u.
Under “mean fluorescence intensity”, `2'F-ANA at 2 3 4 6 9 10 14` is recorded as 173 a.u.
Under “mean fluorescence intensity”, `2'F-ANA at 1 3 4 5 12 13` is recorded as 83.1 a.u.
Under “mean fluorescence intensity”, `2'F-ANA at 1 3 5 7 9 12 14` is recorded as 45.9 a.u.

Series 5
Target: RING finger protein unkempt homolog, zinc fingers 1-6, GST-SBP tag (UNK, Homo sapiens, UniProt Q9C0B0, residues 30-357)
Technique: RNA Bind-n-Seq
Molecule type: RNA
Medium: in vitro
Tested at: not given
Notes: RNA with constant flanks, human-mouse chimeric sites, ends assumed
Baseline: input RNA pool
Reading: higher = stronger binding
All sequences stand within: GGGAGUUCUACAGUCCGACGAUC … CAACAGAGGAUUGAGCAUCA
Residues (chain): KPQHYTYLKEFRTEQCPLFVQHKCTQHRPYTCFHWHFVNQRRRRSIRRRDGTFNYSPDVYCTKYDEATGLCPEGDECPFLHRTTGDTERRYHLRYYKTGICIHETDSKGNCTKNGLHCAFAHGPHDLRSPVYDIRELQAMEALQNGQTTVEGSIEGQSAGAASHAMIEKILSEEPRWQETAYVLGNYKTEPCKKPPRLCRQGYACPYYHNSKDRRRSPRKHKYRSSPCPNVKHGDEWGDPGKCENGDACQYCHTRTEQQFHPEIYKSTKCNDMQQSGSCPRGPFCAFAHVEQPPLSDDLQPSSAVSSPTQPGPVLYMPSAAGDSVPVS
`GCCACCAGAUCCCAGAAACAUGACCCUUGCUGCCUACAAAGAGAAGAUGAAGGAGCUCCCACUAGUGUCCUUGUUCUGCUCCUGCUUCCUGGCCGAUCCCCUGAAUAAGUCGUCCUACAA` gave a bound/input enrichment of 0.96 ratio.
With `GGUGGGGUGGUCAUUGCCGUUUGAGCUGCUGAUUUUCAUGAGUCGCCCAUUCAGAACUCGUGUAGGGUUGACAAUGUGGGGGGGUGGGGGAUCCAGCUUAUUCUUUUAUUUUCAAGUCCA` the bound/input enrichment was 0.559 ratio.
`GUUCGACUUUGGGAUCAUGCCACAAUGACAGAAGUGAAAUCUCUGAAUUUUAAUAUGUCUGUUAGCAGCAUGGAGUAUAUUCCUGAAGGAGAGAUUUUGGUUAUUACUUAUGGACGAUCU` gave a bound/input enrichment of 0.188 ratio.
`GCACUUGGGAAUGUAAUCAGCGCCUUGGGGGACAAGAGCAAGAGAGCCACACAUGUCCCUUACAGAGACUCUAAGCUGACAAGACUCUUGCAGGAUUCCCUUGGGGGUAACAGCCAAACC` gave a bound/input enrichment of 0.12 ratio.
With `UAAGUCCUGUGCCAGCACUUCGCUCAUAAAGUUUUAAAUUCAAGAAAAAUAGUGUUUGUUUCCUGAUUAUUGUAUCCAAUACUUUGCCUAGUAUGUAACUCACUCUUACUGAUAAUAAAA` the bound/input enrichment was 5.09 ratio.
With `UUCAAAGAAAAGGGCAGCUGUGUCAUUACUUGGGAGACUCUGGGGGAGGGAAAUUCUGUUCUUUUGUUUAAUUUUCCCCCAAAUGAAACCAACAUGCGUGUUGAAGAACUGAGAAAAAAU` the bound/input enrichment was 0.247 ratio.
With `GCAAGAGAUGAUGAGGCGGCAGCUGUUGCCCUUUCCUCUCUCGUUCAUGCUUUGGAUGAGUUAAACAUGGUCGCCAUCGUCCGAUAUGCUUAUGACAAAAGAUCUAAUCCUCAAGUUGGU` the bound/input enrichment was 0.178 ratio.
`ACACAAUAUGAGACCAACAGCAUGGACUUCAAAGUUGGGGCAGAUGGGACAGUCUUCGCCACUAGGGAGUUGAAGAUCCCCUCCGAGCAGGUGGCGUUCACGGUGACUGCAUGGGACAGC` gave a bound/input enrichment of 0.262 ratio.
For `AAAGAAAAUGGAGAAGUAAAGAUUUUACUGAAAAGUGGGAAGGAGAAACCAAAAACAAAUAUAGAAGACUUACAAAUUAAAAAAGUAAAGAAGAAAAAGAAAAAGAAACACAAAGAGAAU`, the bound/input enrichment was 14.5 ratio.
With `AGGAGGAGGUUAAAGGGUGAGAGUGGGGUGGAAGACUGUGUCAUGGCUCUGGAGACACUGUUCAGUGUCCUGCUUUCUCUGUGCAGACUUAUGGCUCCCUACACACCCUUUCUGACUGAG` the bound/input enrichment was 0.0511 ratio.
For `AUGGAACAUUUUGAUGCGUCACUCAGUACCUAUUUCAAGGCCUUCCUGGGCCCCCGAGAUACAAGAGUCAAAGGAUGGUUCCUCCUGGACAAUUACAUCCCUACGUUUGUCUGUUCUGUU`, the bound/input enrichment was 0.142 ratio.
